Measurements of several laboratories.
Each line is one published result; not all experiments were run side by side.
Organism: Pseudomonas aeruginosa

Structure (SMILES)	assay	test system	setting	how to read	MIC
CC[C@H](C)[C@H](NC(=O)[C@H](CC(C)C)NC(=O)[C@H](CCCCN)NC(=O)[C@@H](NC(=O)[C@H](C)NC(=O)[C@H](CCC(=O)O)NC(=O)[C@H](Cc1c[nH]cn1)NC(=O)[C@@H](NC(=O)[C@H](CCCCN)NC(=O)[C@H](CCC(N)=O)NC(=O)[C@H](Cc1ccccc1)NC(=O)[C@@H](NC(=O)[C@H](CCCCN)NC(=O)[C@@H](N)CCCCN)C(C)C)[C@@H](C)CC)[C@@H](C)CC)C(N)=O	broth microdilution	4007 resistant	18 h, 37 °C	–	32 µM
CC(C)(C)Oc1ccc(CC2NC(=O)C(C(=O)NC(C(=O)NC3C(=O)N4C3SC(C)(C)C4C(=O)O)c3ccccc3)=C2O)cc1 (stereo not shown)	–	pvdS mutant	–	–	12.5 µg/mL
CC[C@H](C)[C@H](NC(=O)CN)C(=O)NCC(=O)N[C@@H](CCCCN)C(=O)N[C@@H](Cc1ccccc1)C(=O)N[C@@H](CC(C)C)C(=O)N[C@@H](CCCCN)C(=O)N[C@@H](CCCCN)C(=O)N[C@@H](C)C(=O)N[C@@H](CCCCN)C(=O)N[C@@H](CCCCN)C(=O)N[C@@H](Cc1ccccc1)C(=O)NCC(=O)N[C@@H](CCCCN)C(=O)N[C@@H](C)C(=O)N[C@@H](Cc1ccccc1)C(=O)N[C@H](C(=O)N[C@@H](CCCCN)C(=O)N[C@H](C(=O)N[C@@H](CC(C)C)C(=O)N[C@@H](CCCCN)C(=O)N[C@@H](CCCCN)C(N)=O)[C@@H](C)CC)C(C)C	broth dilution	ATCC 27853	–	–	25 µM
CC[C@H](C)[C@H](NC(=O)CNC(=O)[C@H](CC(=O)O)NC(=O)[C@H](CCCNC(=N)N)NC(=O)[C@@H](NC(=O)[C@H](CC(N)=O)NC(=O)[C@H](CCCNC(=N)N)NC(=O)CNC(=O)[C@@H](NC(=O)[C@H](CCCCN)NC(=O)[C@H](CCC(=O)O)NC(=O)[C@@H](NC(=O)[C@H](CCCCN)NC(=O)[C@H](CCCCN)NC(=O)[C@H](Cc1ccccc1)NC(=O)[C@@H](NC(=O)[C@H](CCCCN)NC(=O)[C@H](Cc1c[nH]c2ccccc12)NC(=O)[C@@H](N)CCCNC(=N)N)[C@@H](C)CC)[C@@H](C)CC)C(C)C)C(C)C)C(=O)N[C@H](C(=O)N[C@@H](CCCCN)C(=O)N[C@@H](C)C(=O)NCC(=O)N1CCC[C@H]1C(=O)N[C@@H](C)C(=O)N[C@H](C(=O)N[C@@H](C)C(=O)N[C@@H](C)C(=O)N[C@@H](C)C(=O)NCC(=O)N[C@@H](CCC(N)=O)C(=O)N[C@@H](C)C(=O)N[C@@H](C)C(=O)N[C@H](C(=O)N[C@H](C(=O)N[C@H](C(=O)N[C@@H](CCCCN)C(N)=O)C(C)C)C(C)C)[C@@H](C)O)C(C)C)[C@@H](C)CC	–	KCCM 11328, Mueller-Hinton broth	16 h, 37 °C	growth inhibition over 99%	4 µM
CC1(C)S[C@@H]2[C@H](NC(=O)[C@H](N)c3ccccc3)C(=O)N2[C@H]1C(=O)O	–	pvdS mutant	–	–	200 µg/mL
CN1C(=O)Cc2ccc(F)c(CCNC[C@H]3CN(c4ccc5c(n4)NC(=O)CO5)C(=O)O3)c21	–	ATCC 27853	–	–	1 µg/mL
N=C(N)NCCC[C@H](NC(=O)[C@@H](N)CCCNC(=N)N)C(=O)N[C@@H](Cc1c[nH]c2ccccc12)C(=O)N[C@@H](Cc1c[nH]c2ccccc12)C(=O)N[C@@H](CCC(N)=O)C(=O)N[C@@H](Cc1ccccc1)C(=O)N[C@@H](CCC(N)=O)C(=O)N[C@@H](Cc1ccccc1)C(=O)N[C@@H](CCCCN)C(N)=O	broth microdilution, optical density	–	–	–	155 µM
CC1NC(=O)C(C(=O)NC(C(=O)NC2C(=O)N3C2SC(C)(C)C3C(=O)O)c2ccccc2)=C1O (stereo not shown)	–	fptA mutant	–	–	25 µg/mL
CC[C@H](C)[C@H](N)C(=O)N[C@@H](CO)C(=O)N[C@@H](Cc1ccccc1)C(=O)N[C@@H](CC(C)C)C(=O)NCC(=O)N[C@@H](CO)C(=O)N[C@@H](CCCCN)C(=O)N[C@H](C(=O)N[C@H](C(=O)N[C@H](C(=O)N[C@@H](CC(C)C)C(=O)N[C@@H](CC(C)C)C(=O)N[C@@H](CCCCN)C(=O)N[C@@H](CCCNC(=N)N)C(=O)N[C@@H](CCCNC(=N)N)C(=O)N[C@@H](CCCCN)C(=O)N[C@@H](CCCNC(=N)N)C(=O)N[C@@H](CCCCN)C(=O)N[C@@H](CCCNC(=N)N)C(=O)N[C@@H](CCCCN)C(N)=O)C(C)C)C(C)C)C(C)C	broth microdilution	ATCC 27853	highest value reported	–	32 µM
CC[C@H](C)[C@H](NC(=O)[C@H](Cc1c[nH]c2ccccc12)NC(=O)[C@@H](NC(=O)[C@@H](NC(=O)[C@@H](NC(=O)[C@H](CCCNC(=N)N)NC(=O)[C@@H](N)CCCNC(=N)N)[C@@H](C)CC)[C@@H](C)O)[C@@H](C)CC)C(=O)N[C@H](C(=O)N[C@H](C(=O)N[C@@H](CCCNC(=N)N)C(=O)N[C@@H](CCCNC(=N)N)C(N)=O)[C@@H](C)CC)[C@@H](C)O	broth microdilution	27853, Mueller-Hinton broth	24 h, 37 °C, lowest concentration, 95% inhibition, with: BSA	–	128 µM
CC1(C)SC2C(NC(=O)C(NC(=O)C3=C(O)C(c4ccccc4)NC3=O)c3ccccc3)C(=O)N2C1C(=O)O (stereo not shown)	broth microdilution	TonB-dependent receptor mutant	PA two-allele library	–	25 µg/mL
CC(C)C[C@@H](NC(=O)CNC(=O)[C@@H](CCCCN)NC(=O)[C@@H](CC(C)C)NC(=O)[C@@H](CCCCN)NC(=O)[C@@H](CCCNC(=N)N)NC(=O)[C@@H](CC(C)C)NC(=O)[C@@H](CC(C)C)NC(=O)[C@@H](CCCNC(=N)N)NC(=O)[C@H](N)CCCNC(=N)N)C(=O)N[C@H](CCCCN)C(=O)N[C@H](CCCCN)C(=O)N[C@H](Cc1ccc(O)cc1)C(=O)N[C@H](CC(C)C)C(=O)N[C@H](Cc1ccc(O)cc1)C(=O)N[C@H](Cc1ccccc1)C(=O)N[C@H](CCCCN)C(=O)N[C@H](CC(C)C)C(=O)N[C@H](CCC(N)=O)C(=O)N[C@H](CC(C)C)C(=O)N[C@H](CC(C)C)C(=O)N[C@H](CCCCN)C(=O)N[C@H](CCCCN)C(N)=O	–	KCTC 1637, Mueller-Hinton broth	24 h	–	2 µM
CC[C@H](C)CCCCC(=O)N[C@@H](CCN)C(=O)N[C@H](C(=O)N[C@@H](CCN)C(=O)N[C@H]1CCNC(=O)[C@H]([C@@H](C)O)NC(=O)[C@H](CCN)NC(=O)[C@H](CCN)NC(=O)[C@H](CC(C)C)NC(=O)[C@@H](CC(C)C)NC(=O)[C@H](CCN)NC1=O)[C@@H](C)O	broth microdilution	ATCC 27853	–	–	0.5 µg/mL

For quick reference, copied from above:
Structure (SMILES)	assay	test system	setting	how to read	MIC
CC1(C)SC2C(NC(=O)C(NC(=O)C3=C(O)C(c4ccccc4)NC3=O)c3ccccc3)C(=O)N2C1C(=O)O (stereo not shown)	broth microdilution	TonB-dependent receptor mutant	PA two-allele library	–	25 µg/mL
CC(C)C[C@@H](NC(=O)CNC(=O)[C@@H](CCCCN)NC(=O)[C@@H](CC(C)C)NC(=O)[C@@H](CCCCN)NC(=O)[C@@H](CCCNC(=N)N)NC(=O)[C@@H](CC(C)C)NC(=O)[C@@H](CC(C)C)NC(=O)[C@@H](CCCNC(=N)N)NC(=O)[C@H](N)CCCNC(=N)N)C(=O)N[C@H](CCCCN)C(=O)N[C@H](CCCCN)C(=O)N[C@H](Cc1ccc(O)cc1)C(=O)N[C@H](CC(C)C)C(=O)N[C@H](Cc1ccc(O)cc1)C(=O)N[C@H](Cc1ccccc1)C(=O)N[C@H](CCCCN)C(=O)N[C@H](CC(C)C)C(=O)N[C@H](CCC(N)=O)C(=O)N[C@H](CC(C)C)C(=O)N[C@H](CC(C)C)C(=O)N[C@H](CCCCN)C(=O)N[C@H](CCCCN)C(N)=O	–	KCTC 1637, Mueller-Hinton broth	24 h	–	2 µM
